Measured values of several laboratories.
Each line is one published result; not all experiments were run side by side.
Organism: Bacillus subtilis

`CC[C@H](C)[C@H](NC(=O)[C@@H](Cc1ccccc1)NC)C(=O)N[C@@H](CO)C(=O)N[C@H](CCC(N)=O)C(=O)N[C@@H](C(=O)N[C@H](C(=O)OC[C@H](N)C(=O)N[C@H]1C(=O)N[C@@H](C)C(=O)N[C@@H](C2CCCCC2)C(=O)N[C@@H]([C@@H](C)CC)C(=O)O[C@H]1C)[C@@H](C)CC)[C@@H](C)CC` gave an MIC of 0.0625 µg/mL (broth microdilution; ATCC 6051, Mueller-Hinton broth; 16 h, 37 °C).
`N=C(N)NCCC[C@@H]1NC(=O)[C@H](CCCNC(=N)N)NC(=O)[C@H](CCCNC(=N)N)NC(=O)[C@H](CCCNC(=N)N)NC(=O)[C@H](Cc2c[nH]c3ccccc23)NC(=O)[C@H](CCCNC(=N)N)NC(=O)[C@H](CCCNC(=N)N)NC(=O)[C@@H](N)CCCCn2cc(nn2)C[C@@H](C(N)=O)NC1=O` gave an MIC of 15.6 µg/mL (CMCC 63501; 24 h, 37 °C).
With `CN[C@@H]1[C@H](O)[C@H](NC)[C@H]2O[C@]3(O)[C@H](O[C@@H]2[C@H]1O)O[C@H](C)C[C@@]3(O)CNCc1ccc(Cl)cc1` the MIC was 3.1 µg/mL (ATCC 23857).
For `CC(C)[C@H](NC(=O)[C@@H](NC(=O)[C@H](CCCCN)NC(=O)CNC(=O)[C@@H](NC(=O)[C@@H](NC(=O)[C@H](CO)NC(=O)[C@@H](NC(=O)[C@@H](NC(=O)[C@@H]1CCCN1C(=O)[C@@H](NC(=O)[C@@H](NC(=O)CN)C(C)C)C(C)C)C(C)C)C(C)C)C(C)C)C(C)C)C(C)C)C(N)=O`, the MIC was greater than 100 µM (broth microdilution).
For `CC(C)C[C@@H]1NC(=O)CSC[C@@H]2NC(=O)[C@H](CCCCN)NC(=O)[C@H](CC(C)C)NC(=O)[C@H](CCCCN)NC(=O)[C@H](CCCCNC(=O)[C@H](CC(C)C)NC1=O)NC(=O)[C@H](CC(C)C)NC(=O)[C@H](CC(C)C)NC(=O)CSC[C@@H](C(=O)N[C@@H](CCCCN)C(N)=O)NC(=O)[C@H](CC(C)C)NC(=O)[C@H](CCCCN)NC(=O)[C@H](CCCCN)NC2=O`, the MIC was 64 µg/mL (BR 151; 18 h).
The MIC of `CC[C@H](C)[C@H](NC(=O)[C@H](CCCCNC(=N)N)NC(=O)[C@H](CC(N)=O)NC(=O)[C@H](CC(C)C)NC(=O)[C@H](Cc1ccccc1)NC(=O)[C@H](CCCCNC(=N)N)NC(=O)[C@H](CCCCNC(=N)N)NC(=O)[C@H](CC(C)C)NC(=O)[C@H](CC(C)C)NC(=O)[C@H](CCCCNC(=N)N)NC(=O)[C@H](CCCCNC(=N)N)NC(=O)[C@H](CC(C)C)NC(=O)CNC(C)=O)C(=O)N[C@@H](CCCCNC(=N)N)C(=O)N[C@@H](CCCCNC(=N)N)C(N)=O` is reported as 3.12 µM (broth microdilution; ATCC 6633).
`CC[C@H](C)[C@@H]1NC(=O)[C@@H](NC(=O)[C@H](CCCCN)NC(=O)[C@H](CC(C)C)NC(=O)[C@H](CC(C)C)NC(=O)CNC(C)=O)CN(C)C(=O)c2ccc(=O)n(c2)CC[C@@H](C(=O)N[C@@H](CC(C)C)C(N)=O)NC(=O)[C@H]([C@@H](C)O)NC(=O)[C@H](CCCCN)NC1=O` gave an MIC of 31 µg/mL (ATCC 6051, Mueller-Hinton broth; 20 h, 37 °C).
`NCCCC[C@H](NC(=O)[C@@H]1CSCC(=O)N[C@@H](CCCCN)C(=O)N[C@@H](Cc2ccccc2)C(=O)N[C@@H](CCCCN)C(=O)N[C@H]2CCCCNC(=O)[C@H](CCCCN)NC(=O)[C@H](Cc3ccccc3)NC(=O)[C@H](CCCCN)NC(=O)CSC[C@H](NC(=O)[C@H](Cc3ccccc3)NC(=O)[C@H](Cc3ccccc3)NC(=O)[C@H](CCCCN)NC2=O)C(=O)N[C@@H](Cc2ccccc2)C(=O)N[C@@H](Cc2ccccc2)C(=O)N[C@@H](Cc2ccccc2)C(=O)N1)C(N)=O` gave an MIC of 2 µg/mL (BR 151; 18 h).
For `CC[C@H](C)[C@H](NC(=O)[C@@H](Cc1ccccc1)NC)C(=O)N[C@@H](CO)C(=O)N[C@H](CCCNC(=N)N)C(=O)N[C@@H](C(=O)N[C@H](C(=O)OC[C@H](N)C(=O)N[C@H]1C(=O)N[C@@H](C)C(=O)N[C@@H](CC(C)C)C(=O)N[C@@H]([C@@H](C)CC)C(=O)O[C@H]1C)[C@@H](C)CC)[C@@H](C)CC`, the MIC was no more than 0.0078 µg/mL (broth microdilution; ATCC 6051, Mueller-Hinton broth; 16 h, 37 °C).
`CC(C)C[C@H](NC(=O)[C@H](CC(C)C)NC(=O)[C@H](CCCCN)NC(=O)[C@@H]1CCCN1C(=O)[C@H](CC(C)C)NC(=O)[C@H](CC(C)C)NC(=O)[C@H](CCCCN)NC(=O)[C@H](CC(C)C)NC(=O)[C@H](CC(C)C)NC(=O)[C@H](CO)NC(=O)CNC(=O)[C@H](CC(C)C)NC(=O)[C@@H](N)CC(C)C)C(N)=O` gave an MIC of 3.12 µM (broth microdilution).
`CN1C(=O)[C@@H]2NC(=O)[C@@H]3NC(=O)[C@@H](c4ccc(O)cc4)NC(=O)[C@H](NC(=O)C(NCc4cccc(C(F)(F)F)c4)c4ccc(O)cc4)Cc4c[nH]c5cc(ccc45)-c4cc3cc(c4O)Oc3ccc(cc3)C[C@H]1C(=O)N[C@@H](C(=O)O)c1ccc(O)c(c1)Oc1ccc2cc1` (stereo partly shown) has an MIC of 4 µg/mL (168, Mueller-Hinton broth).
`CC(C)C[C@@H]1NC(=O)[C@H](CC(C)C)NC(=O)[C@H](CC(C)C)NC(=O)[C@@H]2CSCC(=O)N[C@@H](CCCCN)C(=O)N[C@@H](CCCCN)C(=O)N[C@@H](CCCCN)C(=O)N[C@@H](CCCCNC(=O)[C@H](CCCCN)NC(=O)[C@H](CCCCN)NC(=O)[C@H](CCCCN)NC(=O)CSC[C@@H](C(=O)N[C@@H](CCCCN)C(N)=O)NC1=O)C(=O)N[C@@H](CCCCN)C(=O)N[C@@H](CC(C)C)C(=O)N[C@@H](CC(C)C)C(=O)N2` gave an MIC of 2 µg/mL (BR 151; 18 h).
The MIC of `CC[C@H](C)[C@@H]1NC(=O)CNC(=O)[C@H](CCCCN)NC(=O)[C@H](C)NC(=O)[C@H](CCC(=O)O)NC(=O)[C@H](Cc2ccccc2)NC(=O)[C@H](CO)NC(=O)[C@H](CC(C)C)NC(=O)[C@H](C(C)C)NC(=O)[C@H](CC(=O)O)NC(=O)[C@@H](NC(=O)[C@@H](NC(=O)[C@@H](N)C(C)C)[C@@H](C)O)CSSC[C@@H]2NC(=O)[C@H](CO)NC(=O)CNC(=O)CNC(=O)[C@H](CCCCN)NC(=O)[C@H](CCCCN)NC(=O)[C@H](CCCNC(=N)N)NC(=O)[C@H](CC(C)C)NC(=O)[C@H](C)NC(=O)[C@H]([C@@H](C)CC)NC(=O)[C@H](CSSC[C@@H](C(=O)N[C@@H](CCCNC(=N)N)C(=O)N[C@@H](CC(N)=O)C(=O)O)NC(=O)[C@H](C(C)C)NC(=O)[C@H](C)NC(=O)[C@H](C(C)C)NC(=O)CNC(=O)[C@H](CC(N)=O)NC(=O)[C@H](CCC(N)=O)NC2=O)NC(=O)[C@H](Cc2c[nH]cn2)NC(=O)[C@H](CC(C)C)NC(=O)[C@H](C)NC(=O)[C@H](C)NC(=O)[C@H](C)NC(=O)[C@H](CO)NC(=O)[C@H](Cc2c[nH]cn2)NC(=O)[C@H](CC(N)=O)NC(=O)[C@H](C(C)C)NC(=O)[C@H](C)NC1=O` is reported as greater than 100 µM (broth microdilution; KCTC 3068; 16 h, 37 °C).
For `CN1C(=O)[C@@H]2NC(=O)[C@@H]3NC(=O)[C@@H](c4ccc(O)cc4)NC(=O)[C@H](NC(=O)C(NCc4cc(O)cc(O)c4)c4ccc(O)cc4)Cc4c[nH]c5cc(ccc45)-c4cc3cc(c4O)Oc3ccc(cc3)C[C@H]1C(=O)N[C@@H](C(=O)O)c1ccc(O)c(c1)Oc1ccc2cc1` (stereo partly shown), the MIC was 1 µg/mL (168, Mueller-Hinton broth).
For `CC(C)C[C@@H]1NC(=O)[C@H](CC(C)C)NC(=O)[C@H](CCCCN)NC(=O)CSC[C@@H](C(=O)N[C@@H](CCCCN)C(N)=O)NC(=O)[C@H](CCCCN)NC(=O)[C@H](CC(C)C)NC(=O)[C@H](CCCCN)NC(=O)[C@@H]2CSCC(=O)N[C@@H](CCCCN)C(=O)N[C@@H](CC(C)C)C(=O)N[C@@H](CC(C)C)C(=O)N[C@@H](CCCCNC1=O)C(=O)N[C@@H](CCCCN)C(=O)N[C@@H](CC(C)C)C(=O)N[C@@H](CC(C)C)C(=O)N2`, the MIC was 1 µg/mL (BR 151; 18 h).
`CN1C(=O)[C@@H]2NC(=O)[C@@H]3NC(=O)[C@@H](c4ccc(O)cc4)NC(=O)[C@H](NC(=O)C(NCc4ccc(Br)cc4)c4ccc(O)cc4)Cc4c[nH]c5cc(ccc45)-c4cc3cc(c4O)Oc3ccc(cc3)C[C@H]1C(=O)N[C@@H](C(=O)O)c1ccc(O)c(c1)Oc1ccc2cc1` (stereo partly shown) has an MIC of 2 µg/mL (168, Mueller-Hinton broth).
For `CCCCCCSCC1OC(OC2C(N)CC(N)C(OC3OC(CN)C(O)CC3N)C2O)C(O)C(N)C1O` (stereo not shown), the MIC was greater than 150 µg/mL (168 AAC(6')/APH(2'') plasmid).
With `CC(C)C[C@@H]1NC(=O)[C@H](CCCCN)NC(=O)CSC[C@@H]2NC(=O)[C@H](CC(C)C)NC(=O)[C@H](CC(C)C)NC(=O)[C@H](CCCCN)NC(=O)[C@H](CCCCNC(=O)[C@H](CCCCN)NC1=O)NC(=O)[C@H](CCCCN)NC(=O)[C@H](CC(C)C)NC(=O)[C@H](CCCCN)NC(=O)CSC[C@@H](C(=O)N[C@@H](CCCCN)C(N)=O)NC(=O)[C@H](CC(C)C)NC(=O)[C@H](CC(C)C)NC(=O)[C@H](CC(C)C)NC2=O` the MIC was 32 µg/mL (BR 151; 18 h).
The MIC of `CC[C@H](C)[C@H](N)C1=N[C@H](C(=O)N[C@@H](CC(C)C)C(=O)N[C@H](CCC(=O)O)C(=O)N[C@H](C(=O)N[C@H]2CCCCNC(=O)[C@H](CC(N)=O)NC(=O)[C@@H](CC(=O)O)NC(=O)[C@H](Cc3c[nH]cn3)NC(=O)[C@@H](CC(C)C)NC(=O)[C@H]([C@@H](C)CC)NC(=O)[C@@H](CCCN)NC2=O)[C@@H](C)CC)CS1` is reported as 64 µg/mL (168; 18 h, 37 °C, with: ZnSO4 0.3 mM).

For quick reference, copied from above:
The MIC of `CC[C@H](C)[C@H](N)C1=N[C@H](C(=O)N[C@@H](CC(C)C)C(=O)N[C@H](CCC(=O)O)C(=O)N[C@H](C(=O)N[C@H]2CCCCNC(=O)[C@H](CC(N)=O)NC(=O)[C@@H](CC(=O)O)NC(=O)[C@H](Cc3c[nH]cn3)NC(=O)[C@@H](CC(C)C)NC(=O)[C@H]([C@@H](C)CC)NC(=O)[C@@H](CCCN)NC2=O)[C@@H](C)CC)CS1` is reported as 64 µg/mL (168; 18 h, 37 °C, with: ZnSO4 0.3 mM).
`CC[C@H](C)[C@@H]1NC(=O)[C@@H](NC(=O)[C@H](CCCCN)NC(=O)[C@H](CC(C)C)NC(=O)[C@H](CC(C)C)NC(=O)CNC(C)=O)CN(C)C(=O)c2ccc(=O)n(c2)CC[C@@H](C(=O)N[C@@H](CC(C)C)C(N)=O)NC(=O)[C@H]([C@@H](C)O)NC(=O)[C@H](CCCCN)NC1=O` gave an MIC of 31 µg/mL (ATCC 6051, Mueller-Hinton broth; 20 h, 37 °C).
`NCCCC[C@H](NC(=O)[C@@H]1CSCC(=O)N[C@@H](CCCCN)C(=O)N[C@@H](Cc2ccccc2)C(=O)N[C@@H](CCCCN)C(=O)N[C@H]2CCCCNC(=O)[C@H](CCCCN)NC(=O)[C@H](Cc3ccccc3)NC(=O)[C@H](CCCCN)NC(=O)CSC[C@H](NC(=O)[C@H](Cc3ccccc3)NC(=O)[C@H](Cc3ccccc3)NC(=O)[C@H](CCCCN)NC2=O)C(=O)N[C@@H](Cc2ccccc2)C(=O)N[C@@H](Cc2ccccc2)C(=O)N[C@@H](Cc2ccccc2)C(=O)N1)C(N)=O` gave an MIC of 2 µg/mL (BR 151; 18 h).
